Experimental data collected from several papers.
Lines come from different studies, so protocols differ.

| Structure (SMILES) | assay | test system | conditions | endpoint | result |
| --- | --- | --- | --- | --- | --- |
| Cc1cn([C@H]2O[C@@H](CO[P@@](=O)(N[C@@H](C)C(=O)OC(C)C)Oc3ccccc3)[C@H](O)[C@H]2F)c(=O)[nH]c1=O | measured: Flu | human | 10 mg | patients with TEAE | 0% |
| C[C@@H]1OC(=O)NN=C1c1ccc(-c2ccc(F)cc2)c(C(F)(F)F)c1 | phase I trial, measured: Nausea all grades | human patients | 5 mg once daily | patients with adverse event | 0% |
| C[C@]1(O)C[C@@](N)(c2ccc(-c3nc4n(c3-c3ccccc3)COc3ccncc3-4)cc2)C1 |  | human, advanced or metastatic solid tumours | dose not given, all patients, any grade | patients with Anemia TEAE | 17.6% |
| O=C1Nc2cc3[nH]nc(-c4ccncc4)c3cc2CN1Cc1ccccc1 | CTCAE v4.03 | human, relapsed or refractory advanced solid tumours | intravenous, 0.45 mg/kg, pooled schedules | patients with rash | 0% |
| C=CC(=O)Nc1cc(Nc2nccc(Nc3cc(Cl)c(F)cc3C(C)(C)O)n2)c(OC)cc1N1CC[C@@H](N(C)C)C1 |  | human patients | oral, 50 mg, treatment-emergent adverse events | patients with mouth ulceration | 0% |
| COc1ccc(-c2c(-c3ccc(C#N)c(F)c3)nc(N3CCC(N)CC3)n(C)c2=O)cc1F | measured: respiratory failure | human patients | oral, dose not given, dose escalation | patients with serious TEAE | 0% |
| COc1ncnn2ccc(-c3cnc4nc(C)n(Cc5nnc([C@@H](C)F)o5)c4c3)c12 |  | human | oral, dose not given, grade 4 | patients with stomatitis | 0% |
| Cn1cncc1-c1c(F)cncc1NC(=O)c1c(N)nn2cc(F)cnc12 |  | human patients | oral, 220 mg once daily, 2 weeks on 1 week off | patients grade ≥3 Hyperkalemia | 0% |

Excerpt of the above:
| Structure (SMILES) | assay | test system | conditions | endpoint | result |
| --- | --- | --- | --- | --- | --- |
| C[C@]1(O)C[C@@](N)(c2ccc(-c3nc4n(c3-c3ccccc3)COc3ccncc3-4)cc2)C1 |  | human, advanced or metastatic solid tumours | dose not given, all patients, any grade | patients with Anemia TEAE | 17.6% |
